Experimental data gathered from unrelated publications.
Several values in a cell are separate wells, animals, samples, runs or records. Numbers after ± are the reported error.
dcp2 with Dcp1: mRNA decapping complex subunit 2, with Dcp1 (dcp2, Schizosaccharomyces pombe, UniProt O13828)
Chain of UniProt O13828 (whole entry, looked up): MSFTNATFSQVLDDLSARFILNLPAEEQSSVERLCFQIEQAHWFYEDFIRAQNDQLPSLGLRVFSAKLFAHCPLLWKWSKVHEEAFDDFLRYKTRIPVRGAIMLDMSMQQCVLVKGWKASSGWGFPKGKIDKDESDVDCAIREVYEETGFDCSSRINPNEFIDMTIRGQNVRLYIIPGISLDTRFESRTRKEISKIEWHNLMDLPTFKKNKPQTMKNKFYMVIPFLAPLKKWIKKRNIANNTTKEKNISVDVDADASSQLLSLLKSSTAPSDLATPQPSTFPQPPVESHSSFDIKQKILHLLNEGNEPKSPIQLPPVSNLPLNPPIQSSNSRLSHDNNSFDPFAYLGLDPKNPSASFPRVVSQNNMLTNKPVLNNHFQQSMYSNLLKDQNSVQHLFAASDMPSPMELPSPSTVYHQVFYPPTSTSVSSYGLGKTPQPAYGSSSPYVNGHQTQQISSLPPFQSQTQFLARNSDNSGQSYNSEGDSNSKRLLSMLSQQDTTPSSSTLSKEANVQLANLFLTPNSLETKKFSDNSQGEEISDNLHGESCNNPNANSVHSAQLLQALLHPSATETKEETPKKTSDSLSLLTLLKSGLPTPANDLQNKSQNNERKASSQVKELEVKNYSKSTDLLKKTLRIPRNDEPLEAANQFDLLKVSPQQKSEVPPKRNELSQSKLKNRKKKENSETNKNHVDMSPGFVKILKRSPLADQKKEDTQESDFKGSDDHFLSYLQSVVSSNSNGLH
ache: Acetylcholinesterase (ache, Electrophorus electricus, UniProt O42275)
Chain of UniProt O42275 (whole entry, looked up): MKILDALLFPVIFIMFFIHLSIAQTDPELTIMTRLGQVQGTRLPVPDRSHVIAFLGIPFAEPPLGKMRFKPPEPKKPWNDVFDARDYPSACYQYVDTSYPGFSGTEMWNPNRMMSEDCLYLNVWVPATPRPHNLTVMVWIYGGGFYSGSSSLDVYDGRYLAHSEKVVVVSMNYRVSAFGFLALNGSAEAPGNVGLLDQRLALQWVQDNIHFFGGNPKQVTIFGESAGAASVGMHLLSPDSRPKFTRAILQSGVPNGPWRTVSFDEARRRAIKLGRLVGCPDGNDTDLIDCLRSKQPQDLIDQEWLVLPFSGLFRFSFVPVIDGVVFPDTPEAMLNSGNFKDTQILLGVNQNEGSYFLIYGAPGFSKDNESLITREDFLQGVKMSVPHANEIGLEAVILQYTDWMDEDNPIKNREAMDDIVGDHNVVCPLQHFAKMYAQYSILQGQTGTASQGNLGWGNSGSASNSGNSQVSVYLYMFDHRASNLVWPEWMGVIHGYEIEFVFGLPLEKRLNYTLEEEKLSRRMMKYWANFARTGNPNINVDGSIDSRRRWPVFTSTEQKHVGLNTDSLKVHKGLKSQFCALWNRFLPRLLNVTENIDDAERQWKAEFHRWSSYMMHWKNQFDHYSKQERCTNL
Chain of UniProt Q9ULW8 (whole entry, looked up): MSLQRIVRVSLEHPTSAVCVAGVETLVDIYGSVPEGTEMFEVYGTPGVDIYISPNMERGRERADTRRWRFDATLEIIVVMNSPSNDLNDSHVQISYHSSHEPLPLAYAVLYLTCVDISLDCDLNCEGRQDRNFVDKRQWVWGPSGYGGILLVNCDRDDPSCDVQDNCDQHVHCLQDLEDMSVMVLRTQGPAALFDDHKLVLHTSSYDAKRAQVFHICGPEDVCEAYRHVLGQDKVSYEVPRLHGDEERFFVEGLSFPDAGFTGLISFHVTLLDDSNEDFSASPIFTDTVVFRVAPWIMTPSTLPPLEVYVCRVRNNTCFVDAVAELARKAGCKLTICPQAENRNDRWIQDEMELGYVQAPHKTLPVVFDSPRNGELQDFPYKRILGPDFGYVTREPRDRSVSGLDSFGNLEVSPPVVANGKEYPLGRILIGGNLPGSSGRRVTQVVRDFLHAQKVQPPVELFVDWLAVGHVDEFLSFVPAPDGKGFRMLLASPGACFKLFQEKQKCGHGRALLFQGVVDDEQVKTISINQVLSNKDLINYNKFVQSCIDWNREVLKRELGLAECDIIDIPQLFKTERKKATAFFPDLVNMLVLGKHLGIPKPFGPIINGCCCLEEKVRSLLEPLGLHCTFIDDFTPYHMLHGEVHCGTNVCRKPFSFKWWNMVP
Chain of UniProt Q4U2R8 (whole entry, looked up): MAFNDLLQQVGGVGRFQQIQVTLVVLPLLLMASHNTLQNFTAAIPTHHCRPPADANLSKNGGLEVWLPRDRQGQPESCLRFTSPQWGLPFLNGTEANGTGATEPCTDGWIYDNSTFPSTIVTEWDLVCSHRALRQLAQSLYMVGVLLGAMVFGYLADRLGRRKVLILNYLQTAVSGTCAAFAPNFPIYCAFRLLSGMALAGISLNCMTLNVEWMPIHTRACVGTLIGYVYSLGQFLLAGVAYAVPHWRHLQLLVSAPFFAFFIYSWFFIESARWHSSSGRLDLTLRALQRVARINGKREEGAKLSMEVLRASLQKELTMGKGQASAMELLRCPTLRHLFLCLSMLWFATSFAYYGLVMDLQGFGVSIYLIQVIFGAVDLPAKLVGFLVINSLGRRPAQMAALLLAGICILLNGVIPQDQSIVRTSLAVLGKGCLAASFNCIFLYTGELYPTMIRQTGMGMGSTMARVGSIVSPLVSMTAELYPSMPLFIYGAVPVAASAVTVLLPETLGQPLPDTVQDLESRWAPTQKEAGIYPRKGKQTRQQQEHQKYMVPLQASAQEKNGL
Chain of UniProt P11802 (whole entry, looked up): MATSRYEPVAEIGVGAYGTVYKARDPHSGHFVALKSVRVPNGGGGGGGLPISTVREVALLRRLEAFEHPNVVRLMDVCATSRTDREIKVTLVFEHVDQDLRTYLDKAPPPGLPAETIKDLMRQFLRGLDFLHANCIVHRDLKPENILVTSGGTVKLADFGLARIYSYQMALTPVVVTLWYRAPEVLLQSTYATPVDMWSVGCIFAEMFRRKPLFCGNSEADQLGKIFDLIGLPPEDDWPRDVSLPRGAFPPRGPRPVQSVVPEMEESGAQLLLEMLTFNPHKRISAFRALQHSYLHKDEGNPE
Chain of UniProt Q9BTU6 (whole entry, looked up): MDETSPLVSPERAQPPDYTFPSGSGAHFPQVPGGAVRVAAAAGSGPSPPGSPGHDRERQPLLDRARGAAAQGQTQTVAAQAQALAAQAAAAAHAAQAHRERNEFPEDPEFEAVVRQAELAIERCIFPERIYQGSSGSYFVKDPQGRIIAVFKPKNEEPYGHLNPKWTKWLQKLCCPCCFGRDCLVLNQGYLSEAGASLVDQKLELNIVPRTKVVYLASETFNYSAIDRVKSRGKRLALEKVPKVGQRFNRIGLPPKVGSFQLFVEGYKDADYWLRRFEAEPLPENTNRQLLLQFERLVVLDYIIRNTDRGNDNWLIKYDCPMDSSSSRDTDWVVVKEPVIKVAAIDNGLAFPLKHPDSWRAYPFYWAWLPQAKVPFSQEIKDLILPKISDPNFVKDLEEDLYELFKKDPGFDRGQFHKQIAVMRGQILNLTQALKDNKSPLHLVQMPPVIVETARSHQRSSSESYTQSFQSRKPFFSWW
Chain of UniProt Q01726 (whole entry, looked up): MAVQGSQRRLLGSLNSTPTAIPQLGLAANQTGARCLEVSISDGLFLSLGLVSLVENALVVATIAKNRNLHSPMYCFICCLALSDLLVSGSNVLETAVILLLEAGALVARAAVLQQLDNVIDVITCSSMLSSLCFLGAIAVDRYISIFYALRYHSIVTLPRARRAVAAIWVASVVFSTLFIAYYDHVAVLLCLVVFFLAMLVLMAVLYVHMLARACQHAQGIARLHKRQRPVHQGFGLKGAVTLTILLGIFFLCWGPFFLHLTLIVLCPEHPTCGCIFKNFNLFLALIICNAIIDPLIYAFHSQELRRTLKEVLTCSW

| SMILES | target | assay | test system | setting | inhibition |
| --- | --- | --- | --- | --- | --- |
| C[n+]1cn([C@@H]2O[C@H](COP(=O)([S-])OP(=O)(O)CP(=O)(O)OP(=O)([S-])OC[C@H]3O[C@@H](n4c[n+](C)c5c(O)nc(N)nc54)[C@H](O)[C@@H]3O)[C@@H](O)[C@H]2O)c2nc(N)nc(O)c21 (stereo partly shown) | dcp2 with Dcp1 | – | – | 200 µM, 0.25 h | 29.9% |
| CC(C)[C@H]1NC(=O)C[C@H]2/C=C/CCSSC[C@@H](NC1=O)C(=O)N[C@H](Cc1cccc3ccccc13)C(=O)NCC(=O)O2 | EPHB3 (Homo sapiens, UniProt P54753) | enzyme activity, inhibitor | – | 10 µM | -0.9% |
| C[n+]1cn([C@@H]2O[C@H](COP(=O)([S-])OP(=O)(O)OP(=O)(O)OP(=O)([S-])OC[C@H]3O[C@@H](n4c[n+](C)c5c(O)nc(N)nc54)[C@H](O)[C@@H]3O)[C@@H](O)[C@H]2O)c2nc(N)nc(O)c21 (stereo partly shown) | dcp2 with Dcp1 | – | – | 200 µM, 0.5 h | 59.2% |
| O=C(CN1CN(c2ccccc2)C2(CCN(C(=O)c3cnc4[nH]ncc4c3)CC2)C1=O)NCC(F)(F)F | Tyrosine-protein kinase JAK1, JH1 kinase domain (JAK1, Homo sapiens, UniProt P23458) | inhibitor | – | concentration not given | < 50% |
| O=C(O)c1ccccc1/C=N/Nc1nc(-c2ccccc2Cl)cs1 | Cyclin-dependent kinase 4, with cyclin D3 (CDK4, Homo sapiens, UniProt P11802) | enzyme activity, inhibitor | – | 1 µM | 9.54% |
| O=S(=O)(F)CCc1cn(-c2ccc(Br)cc2)nn1 | ache | Ellman | – | 20 µM | 34.2 ± 1.3% |
| C[C@H](NCc1ccc(-c2ccc(C(F)(F)F)cc2)cc1)C(N)=O | ERBB2 (Homo sapiens, UniProt P04626) | cell-free assay, competition with immobilised ligand | – | 1 µM | 8% |
| CN[C@@H]1[C@H](O)[C@H](NC)[C@H]2O[C@]3(O)[C@H](O[C@@H]2[C@H]1O)O[C@H](C)C[C@H]3NC(=O)Cc1ccc(Cl)cn1 | EDNRB (Homo sapiens, UniProt P24530) | ligand displacement, radioligand | – | 10 µM | 8% |
| COc1cc2c(cc1OC)CNCC2 | ache | enzyme activity, inhibitor, Ellman | – | 20 µM | 43.7% |
| CN(/N=C/c1ccccc1C(=O)O)c1nc(-c2ccccc2Cl)cs1 | NPM1-ALK fusion kinase | kinase activity, inhibitor | – | 1 µM | 22.2% and 24.8% |
| Cc1ccc2c(n1)c(-c1cccc(S(C)(=O)=O)c1)c(C)n2C/C(F)=C/CN | GABBR1 (Homo sapiens, UniProt Q9UBS5) | off-target safety screen | – | 10 µM | 0% |
| COc1ccc(F)cc1S(=O)(=O)Nc1cnc2c(c1)C(=O)NCCO2 | MC1R (Homo sapiens, UniProt Q01726) | ligand displacement, radioligand | – | 10 µM | -5% |
| N[C@H](C(=O)N1CCCC1)C1CCN(c2nccc3c(-c4ncc(Cl)cc4Cl)cccc23)CC1 | PADI3 (Homo sapiens, UniProt Q9ULW8) | enzyme activity, inhibitor | – | 6.291 nM | 8.3% and 1.92% |
| C=CC(=O)Nc1cc(-c2nn(C3CCC(N4CCN(C(C)=O)CC4)CC3)c3ncnc(N)c23)ccc1Oc1ccccc1 (stereo not shown) | MARK3 (Homo sapiens, UniProt P27448) | inhibitor, KiNativ profiling | biochemical | 2 µM | -10.9% |
| Cc1cc(-c2ccc3ccccc3c2)nnc1NCCN1CCN(C)CC1 | SLC22A6 (Homo sapiens, UniProt Q4U2R8) | transport | – | concentration not given | negative |
| O=C(NC1CCN(c2ncnc3[nH]cnc23)CC1)c1cccc(NS(=O)(=O)c2ccc(C(F)(F)F)cc2)c1 | Genome polyprotein, NS5 methyltransferase domain (Zika virus, UniProt Q32ZE1) | NS5 enzyme activity, inhibitor | – | 6.25 µM | -4.08% |
| CCc1nc2ccc(C(=O)NCCOc3ccc(OC)cc3)cn2c1N(C)Cc1ccc(OC)cc1 | ache | enzyme activity, inhibitor, Ellman | – | 5 µM | 72.2% |
| COc1ccccc1-n1cc(CCS(=O)(=O)F)nn1 | ache | Ellman | – | 20 µM | 21.7 ± 1.9% |
| CS(C)(=O)=Nc1ccc(-c2ccc(-c3nc4cc(O[C@@H]5CO[C@H]6[C@@H]5OC[C@H]6O)[nH]c4cc3F)cc2)cc1 | Cathepsin D (CTSD, Homo sapiens, UniProt P07339) | enzyme activity, inhibitor | – | 10 µM | -6% |
| O=C(Oc1cncc(Cl)c1)c1cccc2[nH]ccc12 | Cathepsin B (CTSB, Homo sapiens, UniProt P07858) | enzyme activity, inhibitor, absorbance | – | 10 µM | 5% |
| CN[C@@H]1[C@H](O)[C@H](NC)[C@H]2O[C@]3(O)[C@H](O[C@@H]2[C@H]1O)O[C@H](C)C[C@H]3NC(=O)Cc1cc(Cl)ccn1 | Estrogen receptor (ESR1, Homo sapiens, UniProt P03372) | ligand displacement, radioligand | – | 10 µM | 4% |
| O=C1c2ccccc2CCCN1CCCCN1CCN(c2cccc(Cl)c2Cl)CC1 | DRD5 (Homo sapiens, UniProt P21918) | radioligand binding | – | concentration not given, together with: [3H]SCH23390 | 73.3% |
| CN(C)[C@H]1C[C@@]23CC[C@@]4(O2)C(=CC[C@]2(C)[C@@H](c5ccc6ccncc6c5)CC[C@H]24)C=C3[C@@H](O)[C@@H]1O | PI4K2A (Homo sapiens, UniProt Q9BTU6) | ATP probe labelling, inhibitor, KiNativ profiling | – | 0.1 µM | 0.1% |
| O=[N+]([O-])c1ccc(-n2cc(CCS(=O)(=O)F)nn2)cc1 | ache | Ellman | – | 20 µM | 46 ± 1.8% |
| CC(=O)NC[C@@H]1[C@@H](O)C[C@H]2[C@H](O)C[C@@H](CO)N12 | human placental β-N-acetylglucosaminidase | – | – | 0.0428 µM, run 2, together with: p-nitrophenyl GlcNAc | 40.9% |

Repeated from above:
| SMILES | target | assay | test system | setting | inhibition |
| --- | --- | --- | --- | --- | --- |
| O=C(CN1CN(c2ccccc2)C2(CCN(C(=O)c3cnc4[nH]ncc4c3)CC2)C1=O)NCC(F)(F)F | Tyrosine-protein kinase JAK1, JH1 kinase domain (JAK1, Homo sapiens, UniProt P23458) | inhibitor | – | concentration not given | < 50% |
| C[n+]1cn([C@@H]2O[C@H](COP(=O)([S-])OP(=O)(O)OP(=O)(O)OP(=O)([S-])OC[C@H]3O[C@@H](n4c[n+](C)c5c(O)nc(N)nc54)[C@H](O)[C@@H]3O)[C@@H](O)[C@H]2O)c2nc(N)nc(O)c21 (stereo partly shown) | dcp2 with Dcp1 | – | – | 200 µM, 0.5 h | 59.2% |
| O=S(=O)(F)CCc1cn(-c2ccc(Br)cc2)nn1 | ache | Ellman | – | 20 µM | 34.2 ± 1.3% |
